Published values pooled from the literature.
Each numbered part is a random draw from the data of one study; scales do not carry over between parts.
Sequence of UniProt P31751 (whole entry, looked up): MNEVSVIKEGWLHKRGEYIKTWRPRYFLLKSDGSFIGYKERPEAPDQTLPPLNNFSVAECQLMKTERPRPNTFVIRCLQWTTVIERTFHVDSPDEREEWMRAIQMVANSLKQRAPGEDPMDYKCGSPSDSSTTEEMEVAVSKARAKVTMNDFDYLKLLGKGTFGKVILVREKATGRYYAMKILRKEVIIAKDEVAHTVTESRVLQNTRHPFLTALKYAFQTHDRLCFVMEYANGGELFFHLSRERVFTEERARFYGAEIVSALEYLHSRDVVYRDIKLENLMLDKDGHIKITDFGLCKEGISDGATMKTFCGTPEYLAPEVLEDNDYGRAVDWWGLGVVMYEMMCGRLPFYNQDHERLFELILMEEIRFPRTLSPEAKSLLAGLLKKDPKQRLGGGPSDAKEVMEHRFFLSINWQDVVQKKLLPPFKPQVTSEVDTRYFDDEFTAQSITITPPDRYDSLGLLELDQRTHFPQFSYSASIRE
Sequence of UniProt P51813 (whole entry, looked up): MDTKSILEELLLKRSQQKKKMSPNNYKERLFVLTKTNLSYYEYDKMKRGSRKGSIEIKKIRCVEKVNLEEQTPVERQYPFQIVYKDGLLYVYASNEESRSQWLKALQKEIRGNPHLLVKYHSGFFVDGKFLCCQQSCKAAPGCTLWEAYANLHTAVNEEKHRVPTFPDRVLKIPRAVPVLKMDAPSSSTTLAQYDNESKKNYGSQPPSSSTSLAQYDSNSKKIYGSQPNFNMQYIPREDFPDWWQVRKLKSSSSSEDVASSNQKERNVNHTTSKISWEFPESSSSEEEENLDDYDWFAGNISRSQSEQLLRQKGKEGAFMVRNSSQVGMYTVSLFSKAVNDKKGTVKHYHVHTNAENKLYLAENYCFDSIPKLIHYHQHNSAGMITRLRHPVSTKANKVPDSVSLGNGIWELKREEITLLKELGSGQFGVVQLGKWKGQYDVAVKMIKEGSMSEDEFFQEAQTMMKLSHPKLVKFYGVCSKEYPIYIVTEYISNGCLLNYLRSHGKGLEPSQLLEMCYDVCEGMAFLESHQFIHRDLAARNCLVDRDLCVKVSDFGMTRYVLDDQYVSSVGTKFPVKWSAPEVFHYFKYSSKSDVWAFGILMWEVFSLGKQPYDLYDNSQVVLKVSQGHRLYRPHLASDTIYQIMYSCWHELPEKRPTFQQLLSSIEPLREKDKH
Sequence of UniProt O75676 (whole entry, looked up): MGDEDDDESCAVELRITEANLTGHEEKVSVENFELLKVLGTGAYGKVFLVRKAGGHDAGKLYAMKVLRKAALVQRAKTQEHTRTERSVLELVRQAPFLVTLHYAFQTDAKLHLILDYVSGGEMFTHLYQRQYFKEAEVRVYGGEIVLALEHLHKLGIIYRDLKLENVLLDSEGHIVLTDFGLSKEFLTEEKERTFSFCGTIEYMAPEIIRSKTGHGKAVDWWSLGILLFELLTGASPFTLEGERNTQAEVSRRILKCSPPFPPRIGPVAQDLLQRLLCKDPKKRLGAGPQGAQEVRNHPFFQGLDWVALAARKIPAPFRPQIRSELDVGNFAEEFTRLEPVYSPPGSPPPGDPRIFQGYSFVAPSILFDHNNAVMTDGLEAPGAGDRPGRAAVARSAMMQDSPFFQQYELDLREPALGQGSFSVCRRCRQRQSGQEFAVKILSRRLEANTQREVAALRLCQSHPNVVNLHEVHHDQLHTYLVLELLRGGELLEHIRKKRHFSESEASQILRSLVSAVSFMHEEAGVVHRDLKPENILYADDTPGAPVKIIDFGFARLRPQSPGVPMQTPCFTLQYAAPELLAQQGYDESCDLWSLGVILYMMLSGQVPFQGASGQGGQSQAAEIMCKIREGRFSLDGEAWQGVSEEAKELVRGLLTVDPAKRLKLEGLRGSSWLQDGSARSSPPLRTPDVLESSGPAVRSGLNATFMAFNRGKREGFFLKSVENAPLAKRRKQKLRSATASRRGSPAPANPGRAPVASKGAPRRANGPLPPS
Sequence of UniProt O43683 (whole entry, looked up): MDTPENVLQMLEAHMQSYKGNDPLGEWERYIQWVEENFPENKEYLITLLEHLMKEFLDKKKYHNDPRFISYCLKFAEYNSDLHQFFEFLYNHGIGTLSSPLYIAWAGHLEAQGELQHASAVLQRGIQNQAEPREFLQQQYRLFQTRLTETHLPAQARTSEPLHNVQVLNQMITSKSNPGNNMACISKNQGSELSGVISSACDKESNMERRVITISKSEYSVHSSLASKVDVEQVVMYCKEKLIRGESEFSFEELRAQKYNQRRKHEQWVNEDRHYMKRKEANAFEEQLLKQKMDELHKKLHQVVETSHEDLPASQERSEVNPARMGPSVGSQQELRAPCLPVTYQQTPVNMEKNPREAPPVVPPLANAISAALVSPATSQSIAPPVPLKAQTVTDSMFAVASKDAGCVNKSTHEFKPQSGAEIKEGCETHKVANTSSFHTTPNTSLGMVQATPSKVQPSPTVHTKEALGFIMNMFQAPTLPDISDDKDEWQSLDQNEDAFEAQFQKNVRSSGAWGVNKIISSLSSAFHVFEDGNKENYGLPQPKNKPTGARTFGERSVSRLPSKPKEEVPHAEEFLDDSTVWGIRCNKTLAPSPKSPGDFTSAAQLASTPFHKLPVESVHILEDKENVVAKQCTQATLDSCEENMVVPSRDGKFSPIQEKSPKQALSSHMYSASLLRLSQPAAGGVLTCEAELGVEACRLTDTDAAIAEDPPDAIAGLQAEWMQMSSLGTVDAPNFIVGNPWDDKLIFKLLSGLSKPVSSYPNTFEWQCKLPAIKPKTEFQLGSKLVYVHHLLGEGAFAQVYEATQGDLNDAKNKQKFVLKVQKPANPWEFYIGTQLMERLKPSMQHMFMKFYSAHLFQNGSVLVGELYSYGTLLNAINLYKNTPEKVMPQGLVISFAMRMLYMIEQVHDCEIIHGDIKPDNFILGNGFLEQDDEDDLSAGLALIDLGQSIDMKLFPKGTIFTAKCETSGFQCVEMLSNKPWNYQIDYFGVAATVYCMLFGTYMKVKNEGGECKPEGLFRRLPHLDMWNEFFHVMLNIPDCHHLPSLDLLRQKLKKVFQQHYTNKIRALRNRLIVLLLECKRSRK
Sequence of UniProt P62344 (whole entry, looked up): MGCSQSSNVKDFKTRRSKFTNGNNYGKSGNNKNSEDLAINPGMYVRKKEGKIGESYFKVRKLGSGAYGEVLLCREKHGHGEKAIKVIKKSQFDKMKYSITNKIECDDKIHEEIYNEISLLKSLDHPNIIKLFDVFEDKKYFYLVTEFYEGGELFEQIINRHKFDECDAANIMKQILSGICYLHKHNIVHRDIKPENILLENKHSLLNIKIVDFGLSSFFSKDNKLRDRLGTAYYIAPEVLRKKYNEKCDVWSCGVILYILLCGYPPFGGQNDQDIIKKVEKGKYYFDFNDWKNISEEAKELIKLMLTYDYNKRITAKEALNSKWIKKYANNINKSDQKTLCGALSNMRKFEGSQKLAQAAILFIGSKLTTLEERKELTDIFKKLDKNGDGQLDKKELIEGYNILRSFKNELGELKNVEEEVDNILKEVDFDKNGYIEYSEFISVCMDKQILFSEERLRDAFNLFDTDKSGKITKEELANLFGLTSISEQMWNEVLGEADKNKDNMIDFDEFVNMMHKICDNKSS
Sequence of UniProt P10721 (whole entry, unmodified, looked up): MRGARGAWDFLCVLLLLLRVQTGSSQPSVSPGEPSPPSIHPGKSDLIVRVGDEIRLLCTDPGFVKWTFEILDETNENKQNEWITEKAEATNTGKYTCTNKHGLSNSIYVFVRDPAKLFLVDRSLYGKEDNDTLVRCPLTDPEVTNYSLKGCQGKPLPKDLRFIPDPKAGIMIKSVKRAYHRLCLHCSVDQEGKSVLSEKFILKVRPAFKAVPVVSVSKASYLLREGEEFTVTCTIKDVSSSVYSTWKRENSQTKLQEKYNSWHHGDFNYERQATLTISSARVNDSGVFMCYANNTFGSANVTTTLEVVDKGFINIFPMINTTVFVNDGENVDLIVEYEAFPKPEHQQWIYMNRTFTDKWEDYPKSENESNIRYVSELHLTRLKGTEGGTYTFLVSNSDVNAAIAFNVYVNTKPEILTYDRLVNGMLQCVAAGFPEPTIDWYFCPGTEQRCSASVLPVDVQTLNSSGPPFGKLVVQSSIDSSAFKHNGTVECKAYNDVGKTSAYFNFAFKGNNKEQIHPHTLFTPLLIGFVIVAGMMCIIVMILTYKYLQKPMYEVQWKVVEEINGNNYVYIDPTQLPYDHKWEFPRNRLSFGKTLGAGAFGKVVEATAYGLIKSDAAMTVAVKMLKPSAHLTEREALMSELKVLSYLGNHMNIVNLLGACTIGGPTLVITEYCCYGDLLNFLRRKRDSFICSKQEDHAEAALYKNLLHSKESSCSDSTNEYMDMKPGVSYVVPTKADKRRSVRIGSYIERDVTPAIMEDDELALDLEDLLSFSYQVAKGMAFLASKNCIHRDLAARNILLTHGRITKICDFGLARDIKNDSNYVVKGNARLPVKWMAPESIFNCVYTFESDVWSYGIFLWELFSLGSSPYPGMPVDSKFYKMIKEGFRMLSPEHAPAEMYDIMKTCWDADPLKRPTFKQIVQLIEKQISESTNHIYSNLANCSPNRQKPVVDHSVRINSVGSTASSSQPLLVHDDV

Study 1 — read-out: enzyme activity; mode: inhibitor; concentration: 0.5 µM; reference: control
Target: Serine/threonine-protein kinase Chk1 (CHEK1, Homo sapiens, UniProt O14757)
Target sequence (O14757 1-476): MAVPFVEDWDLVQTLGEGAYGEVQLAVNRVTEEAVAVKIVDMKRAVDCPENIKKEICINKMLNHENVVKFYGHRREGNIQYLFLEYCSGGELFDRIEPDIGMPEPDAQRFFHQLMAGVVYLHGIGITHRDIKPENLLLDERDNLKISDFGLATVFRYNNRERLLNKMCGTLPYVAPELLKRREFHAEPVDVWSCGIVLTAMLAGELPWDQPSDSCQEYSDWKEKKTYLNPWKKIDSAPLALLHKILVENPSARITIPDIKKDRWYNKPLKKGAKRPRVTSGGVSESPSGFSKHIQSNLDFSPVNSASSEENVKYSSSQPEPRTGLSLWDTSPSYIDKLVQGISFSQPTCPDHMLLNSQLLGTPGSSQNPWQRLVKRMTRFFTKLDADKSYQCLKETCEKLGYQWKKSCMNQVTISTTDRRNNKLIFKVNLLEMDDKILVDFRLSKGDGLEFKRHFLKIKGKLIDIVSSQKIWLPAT
Structure (SMILES)	remaining activity
Cn1c2ccccc2c2c3c(c4c5ccccc5n(CCC#N)c4c21)CNC3=O	7.95%
Nc1[nH]nc2nc3ccccc3nc12	187%
O=C1NC(=O)C(c2cn(CCCn3ccnc3)c3ccccc23)=C1Nc1ccccc1	76.6%
CC(C)[C@H](CO)Nc1nc(Nc2cc(N)cc(Cl)c2)c2ncn(C(C)C)c2n1	96.2%
CCOC(=O)c1c(C)[nH]c(/C=C2\C(=O)Nc3ccccc32)c1C	89.4%
Nc1ccc2ncnc(NCCc3ccc(Oc4ccccc4)cc3)c2c1	101%
COc1ccc(CNC(=O)Nc2ncc([N+](=O)[O-])s2)cc1	98%
OCC(O)CCON=C1C(c2c(O)[nH]c3ccccc23)=Nc2ccccc21 (stereo not drawn)	67%
Nc1ncnc2n[nH]c(Nc3ccc(F)cc3)c12	88%
Cn1sc(=O)n(Cc2ccccc2)c1=O	103%
Oc1ccc(-c2nc(-c3ccncc3)c(-c3ccc(F)cc3)[nH]2)cc1	98.9%
COc1cc2ncnc(Nc3ccc(F)c(Cl)c3)c2cc1OCCCN1CCOCC1	95.3%
COc1ccc(C(=O)Nc2sc3c(c2C(N)=O)CCCC3)cc1OC	112%
NCCNc1ncc(C(N)=O)c(Nc2cccc(C(F)(F)F)c2)n1	68.7%
CN(C)c1ccc(C=C2C(=O)Nc3ccccc32)cc1	98.2%

Study 2 — read-out: cell-free assay; technique: competition with immobilised ligand; concentration: 1 µM
Structure (SMILES): NS(=O)(=O)c1cc(NC(=O)C2(c3ccccc3Cl)CC2)ccc1Oc1cccc(Cl)c1
target	remaining binding [%]
RET (Homo sapiens, UniProt P07949, V804M)	100
CHEK1 (Homo sapiens, UniProt O14757)	80
ANKK1 (Homo sapiens, UniProt Q8NFD2)	97
PLK3 (Homo sapiens, UniProt Q9H4B4)	86
PRKACA (Homo sapiens, UniProt P17612)	94
BUB1 (Homo sapiens, UniProt O43683)	95

Study 3 — cell line: HuT78; concentration: 2 µM; time: 48 h; reference: untreated
SMILES	viability [%]
COc1cc2c(Oc3ccc4[nH]c(C)cc4c3F)ncnc2cc1OCCCN1CCCC1	162
COc1cc(N2CCC(N)CC2)ccc1Nc1ncc(Cl)c(-c2c[nH]c3ccccc23)n1	123
Cc1cc2c(F)c(Oc3ncnn4cc(OC[C@@H](C)OC(=O)[C@H](C)N)c(C)c34)ccc2[nH]1	89.9
CC[C@@H]1C(=O)N(C)c2cnc(Nc3ccc(C(=O)N[C@H]4CC[C@H](N5CCN(CC6CC6)CC5)CC4)cc3OC)nc2N1C(C)C	14.6
Nc1nc(N)c2nc(-c3cccc(O)c3)c(-c3cccc(O)c3)nc2n1	158
C#Cc1cccc(Nc2ncnc3cc(OCCOC)c(OCCO)cc23)c1	104
CC(C)Nc1cc(-c2c[nH]c(C(=O)N[C@H](CO)c3cccc(Cl)c3)c2)c(Cl)cn1	88
CO[C@H]1C[C@@H]2CC[C@@H](C)[C@@](O)(O2)C(=O)C(=O)N2CCCC[C@H]2C(=O)O[C@H]([C@H](C)C[C@@H]2CC[C@H](n3cnnn3)[C@H](OC)C2)CC(=O)[C@H](C)/C=C(\C)[C@@H](O)[C@@H](OC)C(=O)[C@H](C)C[C@H](C)/C=C/C=C/C=C/1C	68
CN1CC[C@H](c2c(O)cc(O)c3c(=O)cc(-c4ccccc4Cl)oc23)[C@H](O)C1	19.3

Study 4 — read-out: binding; concentration: 1 µM
SMILES: Cc1ccc(NC(=O)c2ccnc(C(F)(F)F)c2)cc1-c1cc(OCCO)nc(N2CCOCC2)c1
target	technique	remaining binding
CDC42BPA (Homo sapiens, UniProt Q5VT25)	competition with immobilised ligand	100%
BMX (Homo sapiens, UniProt P51813)	competition with immobilised ligand	93%
CDPK1 (Plasmodium falciparum, UniProt P62344)		77%
Ribosomal protein S6 kinase alpha-4, C-terminal kinase domain (RPS6KA4, Homo sapiens, UniProt O75676)	competition with immobilised ligand	100%
AKT2 (Homo sapiens, UniProt P31751)		100%
KIT (Homo sapiens, UniProt P10721, L576P)		100%

For quick reference, copied from above (study 1):
Structure (SMILES)	remaining activity
Cn1sc(=O)n(Cc2ccccc2)c1=O	103%
Oc1ccc(-c2nc(-c3ccncc3)c(-c3ccc(F)cc3)[nH]2)cc1	98.9%
COc1cc2ncnc(Nc3ccc(F)c(Cl)c3)c2cc1OCCCN1CCOCC1	95.3%
COc1ccc(C(=O)Nc2sc3c(c2C(N)=O)CCCC3)cc1OC	112%
NCCNc1ncc(C(N)=O)c(Nc2cccc(C(F)(F)F)c2)n1	68.7%
